Published values collected from several papers.
A part holds a random share of what one study measured. Changes are numbered by the printed parent chain.

Sample 1
Target: CREBRF, bZIP domain (human)
Technique: DHFR protein complementation
Medium: yeast
Notes: single substitutions, most at no-binding floor
Baseline: wild-type JUN-FOS pair
Direction: higher = stronger binding
Measurement: binding fitness
Starting sequence: JUN, bZIP domain (human); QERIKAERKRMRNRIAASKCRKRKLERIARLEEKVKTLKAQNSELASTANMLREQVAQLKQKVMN; partner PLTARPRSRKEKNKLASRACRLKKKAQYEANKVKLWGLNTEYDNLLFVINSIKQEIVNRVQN
L38K: -1.35 natural log
E54W: -1.53 natural log
A29V: -1.52 natural log

Sample 2
Target: Sal-like protein 4, full length isoform B (SALL4, Homo sapiens, UniProt Q9UJQ4-2, residues 1-616)
Technique: universal PBM
Molecule type: double-stranded DNA, one strand shown
Medium: in vitro
Concentration: not given
Notes: 8-mer, flanks averaged, mean of replicates
Direction: higher = stronger binding
Measurement: E-score
CCTGGGCA: -0.255
CTCCTTCC: -0.122
CTTGTCCA: -0.0293
AATCACTG: 0.042
GCCCAGAA: -0.172
AAGAAAGC: -0.166
ACGCTGGG: -0.345

Sample 3
Target: RNA binding protein fox-1 homolog 2, RRM domain, GST-SBP tag (RBFOX2, Homo sapiens, UniProt O43251-10, residues 100-194)
Technique: RNA Bind-n-Seq
Molecule type: RNA
Medium: in vitro
Concentration: 365 nM
Notes: natural RNA segment, single round, ends assumed
Baseline: no-protein control
Direction: higher = stronger binding
Measurement: RBNS enrichment (R)
Constant ends, left off below: GGGAGUUCUACAGUCCGACGAUC … UGGAAUUCUCGGGUGCCAA
Target sequence (chain): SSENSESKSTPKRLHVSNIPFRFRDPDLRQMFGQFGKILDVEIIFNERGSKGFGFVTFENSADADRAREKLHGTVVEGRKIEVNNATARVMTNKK
UGGGUACAGGAGAAGUUUGGUGUUUGGUAGGUUUUUCAACAUUAGUUUUUGAGACUAGUUUACCUCUUCACAUUUAUGCUCACAACCCUCUUGUUAGAAAAGUCUGUGUU: 0.393
CAAAUGUGAAUAUGUGUAAAAGUGCUUUUCAGAACUGCAUUACUAUGAGAAAACAUCAAAACUGCUGUAGUUUUCCAUUUCUACUGUAUUUCAGUUGCAACCUAUUUUUA: 0.801
CUGUGUCUCCAGAAAGGGGACAUCGGGGGGGAGGGGGGCUCAGAAAGGAGAAGGGCUGUGAUCUCCGGUCCCUUCCCCCAUCAUCCUUCCUUAGACUGAUGCUUUGACUG: 1.59
AGGGCUCUUUCAAGCCGACUUUCACAAAGAGAGCCGGACUUGUUAGUUGGCUUCUGUCUCUUUAGAGCCAAGAAAAUAGUAAUUAAGUGGCCUAGAUAUAGGAAGGGCAG: 0.264
UAUUUGUACAGAUGAGAGAGGAGCAGAAGAGGCGGCUGUGCUCGAGUUGAGAGACCAGGCAACCCACUGUUGAGAACCACUCUCAGUCAGCUGGUAGGGACAUUACACCA: 0.367
CUGUGGGCCACCACAGUCUGCACAGAAAGGUGGCACCCGGAGUGGUUGUGGCCCUCACUACCAAGCCACGGGCAGCCCAUUUCCAGUAGGAUGGCGGUUUGGAUUUCUUU: 0.335

Single results of other studies
PhoQ, residues 284 288 289 292 302 303 SLANKL — fold induction (PhoP, residues 12 14 15 18 19 LHSVW (Escherichia coli, UniProt P23836); Sort-seq, measured: YFP reporter; E. coli; PhoQ-PhoP variant library, together with: 10 µM Mg2+; baseline: high Mg2+ state, higher = stronger signaling): 9.87

Excerpt of the above (sample 2):
AAGAAAGC: -0.166
CTCCTTCC: -0.122
GCCCAGAA: -0.172
